Measured values gathered from unrelated publications.
Protocols differ between the studies behind these lines. “And” joins repeats or separate records; there may be more than shown. ± gives the spread as reported.

For CCn1nc(Cl)c2c1-c1cnc(N)c(c1)O[C@H](C)c1cc(F)ccc1-c1nn(C)cc1C2, the Emax was 100% (Ba/F3 EML4-ALK v3; cell viability).
COc1cccc(OC)c1-c1cc(C(=O)NC2(C(=O)O)C3CC4CC(C3)CC2C4)nn1-c1ccc(C(=O)N(C)CCCN(C)C(=O)[C@H](CCCCNC(=O)[C@H](CC(C)C)NC(=O)C2OC2C(=O)O)NC(=O)CN2CCN(CC(=O)[O-])CCN(CC(=O)[O-])CCN(CC(=O)[O-])CC2)cc1C(C)C.[177Lu+3] (mixture of isomers) gave an adduct formation of 50.3% (HT-29; SDS-PAGE autoradiography; concentration not given, 4 h; reference: radioactive signal).
The EC50 of CC(C)(C)c1cc(-c2ccc3cccnc3n2)nc(-c2ccc3cccnc3n2)c1.COc1ccncc1.[Cl-].[Cl-].[Ru+2].c1ccc2cc3nc4c5cccnc5c5ncccc5c4nc3cc2c1 is reported as 2000 nM (A-375; resazurin; together with: light 733 nm, 9 mW, 100 J/cm2).
For C[n+]1ccc(/C=N/NC(=O)c2ccc3ccc(C(=O)N/N=C/c4cc[n+](C)cc4)nc3n2)cc1, the ΔTm was 0.1 ± 0.2 °C (hp2 hairpin duplex DNA; FRET melting; 1 µM, together with: ds26 10 µM).
With CC(C)C[C@@H]1NC(=O)[C@H](CC(C)C)NC(=O)[C@H](Cc2c[nH]c3ccccc23)NC(=O)[C@H](CO)NC(=O)[C@H](Cc2c[nH]c3ccccc23)NC(=O)[C@@H]2CCCN2C(=O)[C@H](CC(C)C)NC(=O)[C@H](Cc2c[nH]cn2)NC(=O)[C@@H]2CCCN2C(=O)[C@H](CC(N)=O)NC(=O)[C@H](C)NC(=O)[C@H](Cc2ccc(O)cc2)NC(=O)[C@H](CS)NC(=O)[C@H](CCCCNC(=O)CN2CCN(CC(=O)O)CCN(CC(=O)O)CCN(CC(=O)O)CC2)NC1=O [lutetium-177 labelled] the live cells was 43.8% (4T1; flow cytometry; 0.4 Bq/cell, 72 h).
O=C(C[Se]C(=O)c1cccnc1Nc1cccc(C(F)(F)F)c1)Nc1cccc(C(F)(F)F)c1 — result for “G0/G1 phase cells”: 69.8% (LNCaP, serum starved; flow cytometry; IC50, 48 h).
For O=C(N/N=C/c1cc[n+](Cc2ccccc2)c2ccccc12)c1cccc(C(=O)N/N=C/c2cc[n+](Cc3ccccc3)c3ccccc23)n1, the ΔTm was 0.9 ± 0.2 °C (hp2 hairpin duplex DNA; FRET melting; 1 µM, together with: ds26 10 µM).
With Cc1cc(C)nc(SCC(=O)Nc2ncc(Cc3cccc4ccccc34)s2)n1 the inhibition was 12.1 ± 1.1% (PC-3M-luc; cell viability, MTS; 10 µM).
For CCN(CC)CC(=O)Nc1cccc(-n2cc(-c3ccc4ccc(-c5cn(-c6cccc(NC(=O)CN(CC)CC)c6)nn5)cc4c3)nn2)c1, the fold regulation was -1.11 fold (RCC4; PCR angiogenesis array, refers to: TYMP; 5 x IC50, 4 h, normoxia; reference: untreated).
For O=C(CCCCCOc1ccc2ccccc2c1)N[C@@H](CO)C[C@@H](O)c1ccc(-c2ccccc2)cc1, the ceramide level was 15200 pmol/sample and 20000 pmol/sample and 15600 pmol/sample (HeLa; CERT activity, HPLC-MS/MS lipidomics, refers to: ceramide 24; 1 µM, 24 h, not cell-number normalised).
For Oc1cccc(-c2cccc(O)n2)n1.[Cl-].[Cl-].[Ru+2].c1ccc(-c2ccnc3c2ccc2c(-c4ccccc4)ccnc23)cc1.c1ccc(-c2ccnc3c2ccc2c(-c4ccccc4)ccnc23)cc1, the EC50 was 250 nM (MDA-MB-231; CCK-8 viability; white light 2 h).
CCOc1cncc(-c2ccc(NC(=O)C3(c4ccnc(NS(=O)(=O)C5CC5)n4)CCOCC3)nc2)n1 gave an IC50 of 42 nM (SU-DHL-1; cell growth or viability, ATP luminescence; 72 h).
CCN(C(=O)c1cc(F)ccc1Oc1nncnc1N1CCC2(C1)CN([C@H](CCCN(C)CCOC)C(C)C)C2)C(C)C has a GI50 of over 10000 nM (ASPC1; cell growth or viability; 72 h).
With CC(C)(C)c1cc(-c2ccc3cc4ccccc4nc3n2)nc(-c2ccc3cc4ccccc4nc3n2)c1.[Cl-].[Cl-].[Ru+2].c1ccc2cc3nc4c5cccnc5c5ncccc5c4nc3cc2c1 the phototoxicity index was 3 (A-375; resazurin; together with: light 523 nm, 100 J/cm2; reference: dark EC50 over light EC50).
CC(=O)OC[C@H]1O[C@@H](n2cc(CSc3nc4ccccc4n3Cc3cn([C@@H]4O[C@H](COC(C)=O)[C@@H](OC(C)=O)C(OC(C)=O)[C@H]4OC(C)=O)nn3)nn2)[C@H](OC(C)=O)C(OC(C)=O)[C@@H]1OC(C)=O (stereo in doubt) has a cytotoxicity of 52.4% (Caco-2; MTT; 3.91 ppm).
The phototherapeutic index of [Cl-].[Cl-].[Ru+2].c1ccc(-c2ccccn2)nc1.c1ccc(-c2ccccn2)nc1.c1ccc2cc3nc4c5cccnc5c5ncccc5c4nc3cc2c1 is reported as 1 (SK-MEL-28; cell viability, resazurin; dark, 1% O2 hypoxia; reference: dark EC50 over green EC50).
CN(C)c1ccc(-n2cc(COC(=O)[C@@]3(C)C=C(C(=O)OC(C)(C)C)C(=O)CC3)nn2)cc1 — result for “luminescence relative to PMA”: 0.701 (AP-1 reporter HEK293; AP-1 reporter gene, luciferase reporter; 3 µM, 6 h, together with: PMA 6 ng/mL; reference: PMA alone).
For CN1CCC(N[C@@H]2CCc3[nH]c4c(C(N)=O)ccc(-c5ccccc5Cl)c4c3C2)CC1, the IC50 was 17.5 nM (B16F10; cell proliferation; 96 h).
For O=C1CC[C@H](N2Cc3cc(-c4ccn5ncc(Cl)c5n4)ccc3C2=O)C(=O)N1, “log2 fold change” read -0.0326 (MOLM-13; protein level, TMT proteomics, refers to: AACS; 1 µM, 6 h; reference: DMSO).
The efficacy of O=C(NCc1cc(F)cc(F)c1)[C@@]1(O)CCN(c2ccc3[nH]ccc3c2)C1=O is reported as 72% (CXF158; colony formation, soft agar clonogenic; colon tumour).
The EC50 of Cc1ccncc1.[Cl-].[Cl-].[Ru+2].c1cc(-c2ccc3cccnc3n2)nc(-c2ccc3cccnc3n2)c1.c1ccc2cc3nc4c5cccnc5c5ncccc5c4nc3cc2c1 is reported as 46300 nM (A-375; cytotoxicity, resazurin; dark).
The colony count of CO[C@@H]1[C@@H](OC(N)=O)[C@@H](O)[C@H](Oc2ccc3c(O)c(NC(=O)c4ccc(O)c(CC=C(C)C)c4)c(=O)oc3c2C)OC1(C)C is reported as 28.5 (HCT-116 BRCA2-/-; 50 µM, replicate 2).
Cn1ncc2cc(-c3cncc(Cl)c3N3CCC4(CCNC4=O)CC3)ccc21 — result for “log2 fold change”: -3.29 (LS174T; gene expression, microarray, refers to: IL17C mRNA; concentration not given, 24 h; reference: untreated cells).
The IC50 of CNS(=O)(=O)Nc1nccc(Cc2c(C)c3ccc(Oc4ncccc4F)cc3oc2=O)c1F is reported as over 1000 nM (HEL 92.1.7; cell viability, CellTiter-Glo; 7 days).
CC(C)c1ccc(N(C)c2ccc3c(c2)OCC[C@H]3CNc2cnccc2C(=O)O)cc1 has an IC50 of at least 10000 nM (KURAMOCHI; cell growth or viability, ATP luminescence; 7 days).
Cc1cc(Cl)cc(-c2ccnc3cc(CN4C(=O)C5C(C4=O)C5(C)C)sc23)c1C[C@@H]1CNCCO1 (stereo partly drawn) has a resistance factor of 14.9 (CAPAN-1 resistant to compound; SRB viability; reference: IC50 resistant over parental).
CCc1c(C)c2ccc(OC(C)C)c(C)c2oc1=O gave a viability of 6.84% (MDA-MB-231; cell growth or viability, MTT; 250 µg/mL).
COc1ccccc1-c1ccncc1C(=O)Nc1nnc(OCc2ccc(Cl)cc2)s1 gave a colony count of 18 and 17 and 16 (MDA-MB-436 BRCA1-mutant; 0.1875 µM).
CN1CCCNC(=O)c2cccc(c2)C(=O)NCCCN(C)CCCNc2cccc3c2C(=O)c2cccc(c2C3=O)NCCC1: “log2 fold change” -1.89 (SAS; RNA-Seq, refers to: ZFYVE27 mRNA; 5 µM, 24 h; reference: untreated cells).
Under “log2 fold change”, Cc1ncsc1-c1ccc(C(C)NC(=O)C2CC(O)CN2C(=O)C(NC(=O)CCCCCCCCCCN2CCCC(Nc3ncc(Cl)c(Nc4ccccc4S(=O)(=O)C(C)C)n3)C2)C(C)(C)C)cc1 (stereo not drawn) is recorded as -4.42 (22Rv1; RNA-seq, refers to: TNFRSF10C mRNA; concentration not given; reference: DMSO).

Excerpt of the above:
The EC50 of Cc1ccncc1.[Cl-].[Cl-].[Ru+2].c1cc(-c2ccc3cccnc3n2)nc(-c2ccc3cccnc3n2)c1.c1ccc2cc3nc4c5cccnc5c5ncccc5c4nc3cc2c1 is reported as 46300 nM (A-375; cytotoxicity, resazurin; dark).
CN(C)c1ccc(-n2cc(COC(=O)[C@@]3(C)C=C(C(=O)OC(C)(C)C)C(=O)CC3)nn2)cc1 — result for “luminescence relative to PMA”: 0.701 (AP-1 reporter HEK293; AP-1 reporter gene, luciferase reporter; 3 µM, 6 h, together with: PMA 6 ng/mL; reference: PMA alone).
